# Results collected from several papers.
# Numbered parts are unrelated; each lists some results of a single study. Positions count from the first letter of the parent shown.

# Series 1 — technique: protein-binding microarray; molecule type: double-stranded DNA, one strand shown; matrix: in vitro; concentration: 940 nM top; notes: 60-bp whole probe; with: salmon DNA 0.4 mg/ml; relative to: random background probes; direction: higher = stronger binding; all sequences stand within: GCCTAGCAC … GTCTTGATTCGCTTGACGCTGCTG
# Target: Interferon regulatory factor 5, full length, phosphomimetic (IRF5, Homo sapiens, UniProt Q13568-2, residues 1-514, S451D/S453D/S456D/S462D)
Sequence,fitted relative affinity [z-score]
TCACCTATCCAAGTTCCCACTGTGCTA,1.21
GACGATATCAGGCTCGAGACGTGCTAG,-0.31
TTAGATTTCAGACTGCATTAGTGCTAG,-0.0267
TTAGGACTGGGACTGGGTGAGTGCTAG,-0.335
TTAGATATCGGGTTTCGAATAGTGCTA,2.04
GACGGTCTCGGACTCGGGACGTGCTAG,0.658
TTAGAACTGGGGTATAGATTAGTGCTA,0.136
TTAGGTTTTCTTCTCCTTTAGTGCTAG,1.27
TCATGTTTGTCACTCTCACTGTGCTAG,1.11
TTAGAACTGAGTCCCGATTAGTGCTAG,-0.243
TTAGGACTGGGCTATCGGTTAGTGCTA,-0.462
GACGATATCAGTCTCGCGACGTGCTAG,-0.199
TTAGGTCTCGGAGTGGGTTAGTGCTAG,0.765
GACGGTATCCTTTTCCTCACGTGCTAG,0.777
TCATTTTTCACTATTGCACTGTGCTAG,1.92
GACGGTTACCTACTGCTGACGTGCTAG,-0.245
GTAGGTATCGGGTATCGGTTAGTGCTA,5.89
GACTGTTTCGACTATCGGGACGTGCTA,3.72
TTAGAACTGGGGTATCGAATAGTGCTA,0.715
GACGATTTCTGGTTTCGAGACGTGCTA,4.03
TTAGGTATCGGCATCGGTTAGTGCTAG,4.94
ATCCTTGTCCCTCCGGGAGCGTGCTAG,-0.239
TTAGGTCTCGGACTGGGATAGTGCTAG,1.18
GACGGGCTGGACTATCGGGACGTGCTA,-0.548
TTAGGAATCGACACTGGGTTAGTGCTA,0.318

# Series 2 — technique: RNA Bind-n-Seq; molecule type: RNA; matrix: in vitro; concentration: 365 nM; relative to: no-protein control; direction: higher = stronger binding
# Target: RNA binding protein fox-1 homolog 2, RRM domain, GST-SBP tag (RBFOX2, Homo sapiens, UniProt O43251-10, residues 100-194)
# Notes: natural RNA segment, single round, ends assumed
# Construct (chain): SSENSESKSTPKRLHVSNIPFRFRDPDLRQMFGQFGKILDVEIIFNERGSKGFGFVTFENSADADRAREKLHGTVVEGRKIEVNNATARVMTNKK
Sequence,RBNS enrichment (R)
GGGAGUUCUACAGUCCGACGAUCGCAGCACGCUGUGGUGACAGCCCGUCGGCACGGGAUUUGUACCGCUGUGCCCGUGUCAGCUCCUGGGGAGACCUUUUACCUGUGAUCGCUCCAUCCGAGUUUCCUCCUUCUGGAAUUCUCGGGUGCCAA,0.331
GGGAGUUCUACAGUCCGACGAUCUCAUCAUAGCUGGCACCAGCGCCUAUGCUCGCCUCAUUGACUACGCCCGCAUGAGAGAGGUGUGUGAUGAAGUCAAAGCACACCUGCUGGCAGACAUGGCCCACAUCAGUUGGAAUUCUCGGGUGCCAA,1.28
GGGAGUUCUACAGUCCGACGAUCCUGUGCCCUGACAAGUAGACUGGCACACUCCUGCCCCACACUCAGCCUUCUGCAGCAGGUAGGCUUGCUUCUGUUAGCUCUGCCUGGAUGCCUUUGUUCCAGAAGGCAUCUGGAAUUCUCGGGUGCCAA,0.531
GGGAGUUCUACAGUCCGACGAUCUUCACUGCUGGCUGGUGUGAUGGGUGUAGAGUGCCCACAGAUGAGUCUAUGGAUGUCUUGGCUCUGCUGUCCUGUACUUGCGUGUGUUUUAUUCCUAUUUAAUGUUAUUGUGGAAUUCUCGGGUGCCAA,1.98
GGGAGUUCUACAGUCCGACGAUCCAAUUUACUGUUUCACUGCACAGCAAUCACAGCCAGUGAAUGUUACACACAUCUUGCUAGACUAGUAUAAAAAUCAUUGGGUAAUUGUUGGUUCUAAUGACCUGAAAGGUUGGAAUUCUCGGGUGCCAA,0.349
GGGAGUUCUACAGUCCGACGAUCGUGAGUUCCAGCUAGCAGGCUUUACAUCUGGGGAAAGGAAAACCAGGGGUUUUAGCUCUGUUCUCUGCUCCCAUCCUUCGCUCACCAGCUGAGUGAGAACAUGAACUUUUUGGAAUUCUCGGGUGCCAA,0.722
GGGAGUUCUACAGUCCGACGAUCAGCCUGCCUCAAUCAGUAUUCAUAUUUAUAGCCAGGUACCUUCUCACCUGUGAGACCAAAUUGAGCUAGGGGGGUCAGCCAGCCCUCUUCUGACACUAAAACACCUCAGCUGGAAUUCUCGGGUGCCAA,0.313
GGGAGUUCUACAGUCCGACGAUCCCAACCUGGGCACCGGGCUGCGGGCAGGUGUGCAUAUCAAGCUGCCCAACCUGGGCAAGCAUGAGAAGUUCUCGGAGGUGCUUAAGCGGCUGCGACUUCAGAAGCGAGGCUGGAAUUCUCGGGUGCCAA,0.299
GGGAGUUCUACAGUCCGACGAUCACUUUGGCUUUUUCAUAUACCUAGUGGUGCCUUAUCAUAAUAGCACUGUUACAUGAAAUAAGCCCCUACCUUCUUACUUUCUGGUUUGUUGAAAAAAUACACUGGUGCUCUGGAAUUCUCGGGUGCCAA,0.421
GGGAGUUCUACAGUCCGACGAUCCUGUCAGAGCCCUGGGGGUGUCCACCGGGGACAGACCCAGGGGCGGGCAGAGAGGGAAGGAGGGAGGAGGCAUCUUCCCUGAAGCCCCCAAUCUGGCCCCCCCCUCCCCAUGGAAUUCUCGGGUGCCAA,0.207
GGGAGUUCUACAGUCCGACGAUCUGACGUUGUUGCAUGUUUGAAAUUCGGUCUGUUUAAAGUGGCAGUCAUGUAUGUGGUUUGGAGGCAGAAUUCUUGAACAUCUUUUGAUGAAGAACAAGGUGGUAUGAUCUUGGAAUUCUCGGGUGCCAA,4.59
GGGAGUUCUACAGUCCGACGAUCUAGCACAGAGGAUGCCCCAACAAACUCAUGGCGUUGAAACCACACAGUUCUCAUUACUGUUAUUUAUUAGCUGUAGCAUUCUCUGUCUCCUCUCUCUCCUCCUUUGACCUUGGAAUUCUCGGGUGCCAA,0.34

# Series 3 — technique: DHFR PCA, deep sequencing; matrix: yeast; with: (+)-ABA 2500 µM; relative to: wild-type fitted maximum; direction: higher = stronger binding
# Target: ABI1, truncated, D143A, DHFR fusion (Arabidopsis thaliana)
# Notes: methotrexate growth selection, single substitutions
# Starting sequence: PYL1, truncated, DHFR fusion (Arabidopsis thaliana); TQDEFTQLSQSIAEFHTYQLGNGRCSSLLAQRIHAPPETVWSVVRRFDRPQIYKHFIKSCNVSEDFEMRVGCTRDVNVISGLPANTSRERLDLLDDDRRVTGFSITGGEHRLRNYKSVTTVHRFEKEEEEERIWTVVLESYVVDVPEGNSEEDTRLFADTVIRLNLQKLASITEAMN; partner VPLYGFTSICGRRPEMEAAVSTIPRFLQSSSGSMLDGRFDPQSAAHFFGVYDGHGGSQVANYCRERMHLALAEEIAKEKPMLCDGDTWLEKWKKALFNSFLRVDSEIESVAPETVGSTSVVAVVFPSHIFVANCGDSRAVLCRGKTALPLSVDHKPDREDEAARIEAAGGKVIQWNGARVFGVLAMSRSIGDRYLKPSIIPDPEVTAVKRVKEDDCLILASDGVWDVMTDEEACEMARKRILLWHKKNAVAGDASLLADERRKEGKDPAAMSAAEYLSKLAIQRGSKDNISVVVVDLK
Change,relative binding score [%]
D153H,89.4
D159W,48.6
D153W,12.4
E109T,102
S26L,74.9
L20T,99.3
W134M,106
I133R,101
V44H,4.73
L164R,97.3
A35S,96.4
S87M,3.15
A84Y,62.5
Q31E,90.8
R90F,75.3
D3K,95
R113S,108
V43M,91.6
I12N,79.1

# Series 4 — technique: RNA Bind-n-Seq; molecule type: RNA; matrix: in vitro; concentration: not given; relative to: input RNA pool; direction: higher = stronger binding
# Target: RING finger protein unkempt homolog, zinc fingers 1-6, GST-SBP tag (UNK, Homo sapiens, UniProt Q9C0B0, residues 30-357)
# Chain of UniProt Q9C0B0 (30-357, looked up): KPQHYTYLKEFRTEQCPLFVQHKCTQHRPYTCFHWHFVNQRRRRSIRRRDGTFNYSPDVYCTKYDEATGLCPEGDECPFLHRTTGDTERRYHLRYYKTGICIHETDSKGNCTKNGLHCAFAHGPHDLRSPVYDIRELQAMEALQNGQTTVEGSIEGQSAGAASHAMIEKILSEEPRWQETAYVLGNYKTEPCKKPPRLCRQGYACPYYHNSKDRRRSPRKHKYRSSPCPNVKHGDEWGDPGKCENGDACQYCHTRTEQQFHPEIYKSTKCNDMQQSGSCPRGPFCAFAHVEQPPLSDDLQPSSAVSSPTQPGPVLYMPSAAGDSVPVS
# Notes: RNA with constant flanks, human and mouse sites, ends assumed
Sequence,bound/input enrichment [ratio]
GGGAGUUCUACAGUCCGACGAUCGCUGAUGCAAGUAAGGGUGAUGACCUGCUUCCUGCUGGCACUGAGGAUUAUAUCCAUAUAAGAAUUCAACAGAGAAACGGCAGGAAGACCCUUACUACUGUCCAAGGGAUCGCUGAUGAUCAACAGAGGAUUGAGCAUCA,0.0968
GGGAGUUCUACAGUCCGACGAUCAUUGAGAAGGCCCAGAACACAUUCAGAUAUGUCUUGAUUGACACACCUGGACAGAUUGAAGUAUUUACCUGGUCAGCUUCAGGGACAAUCAUCACUGAGGCCCUGGCUUCCUCAUUUCCACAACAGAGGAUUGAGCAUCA,0.083
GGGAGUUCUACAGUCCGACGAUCCAGGAGUGUGGGGAGUGCUUUGCUCAUAGCUCUGACCUCACUGAGCACCAGAAGAUUCAUGAUAGGGAGAAGCCCUCUGGAAGCAGAAACUAUGAAUGGUCUGUCAUUCGCAGCUUGGCCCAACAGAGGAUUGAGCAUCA,0.178
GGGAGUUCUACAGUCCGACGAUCUGUGGUGGUAAUGUAAUAUUCAGAGUAUACUUUAAUGUUAGUGAGAAAUUCAGUUCUGCAUAGCAGGCUUUUGCUAACUUACCUCUUGAAAGUUUUGUGUCUCUGGGCAGUGGUGGCGAACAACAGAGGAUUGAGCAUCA,1.09
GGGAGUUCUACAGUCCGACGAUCCUCAUUCAGCUCCCCUGACCACAGAGGAAGAGGAUCACUGUGCUAAUGGACAGGACUGUAAUCUAAAUCCAGAGAUUGCCACAAUGUGGAUUGAUGAAAAUGCUGUUGCAGAAGACCAGUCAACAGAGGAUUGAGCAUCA,0.133
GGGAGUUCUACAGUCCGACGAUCGCCUCCCUGAUUCCUGUGGGAACCCCGGGUUCAGGGCCAGGGCCUCCUUGGAAUAAAUGGUUAUUGUUACUAGGUCCCCACCUUCCCUCUUUUCUGGAAGCCAAAGUCACCCUCCCCAAUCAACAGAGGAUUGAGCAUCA,0.367
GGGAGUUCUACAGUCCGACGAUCCAGGUACAGGAACAGAAGGCACAUCUUCGAGCUGCACAAGACCGUGUUCUUUCUCUGGAAACCAGUGUCAGUGAACUAAGCAGUCAGUUAAAUGAAAGCAAGGAGAAGGUCUCGCAGCUUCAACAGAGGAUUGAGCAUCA,0.154
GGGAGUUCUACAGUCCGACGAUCAAACCAGGAAGAAAAGGUAUUUCUUUAAAUCCAGAACAAUGGAGCCAGCUGAAGGAACAGAUUUCUGACAUUGAUGAUGCAGUAAGAAAACUGUAAAAUUCGAGCCAUAUAAAUAAAACCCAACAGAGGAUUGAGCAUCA,0.205
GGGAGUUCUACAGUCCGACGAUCUUAAGAAAAAUGCCUCACAUUAAACAUGUGGAUCUAAGGUUGAACGUAAUUAGGAAGCUGAUAGCAGAUGAAGUGGACUUUCUACAGCAUGUUACUCAGCUUGACCUACGAGACAAUAAGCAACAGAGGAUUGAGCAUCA,0.153
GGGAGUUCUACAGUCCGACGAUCUAUGUGCCCAAUGUUCCAGAAGGAUCUGUGAGAAUCAUAGACCAGUCAAGCAAUGUGGAGAUAGCAUCUUUUCCAAUUUAUAAAGUGCUUUUCUGUGCACGUGGGCAUGAUGGGACAGCCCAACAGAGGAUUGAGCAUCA,17.1
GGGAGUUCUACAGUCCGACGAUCGGAAGAGGUGGUGACCAGCAGAGUGGUUAUGGGAAGGUAUCCAGGCGAGGUGGUCAUCAAAAUAGCUACAAACCAUACUAAAUUAUUCCAUUUGCAACUUAUCCCCAACAGGUGGUGAAGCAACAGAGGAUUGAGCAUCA,3.48

# Series 5 — technique: protein binding microarray; molecule type: double-stranded DNA, one strand shown; matrix: in vitro; concentration: not given; relative to: not given; direction: higher = stronger binding
# Target: Histone acetyltransferase KAT6A, both winged helices, GST fusion (KAT6A, Homo sapiens, UniProt Q92794, residues 1-181)
# Notes: 8-mer, flanks averaged, mean of 2 arrays, mostly near background
# Target sequence (chain): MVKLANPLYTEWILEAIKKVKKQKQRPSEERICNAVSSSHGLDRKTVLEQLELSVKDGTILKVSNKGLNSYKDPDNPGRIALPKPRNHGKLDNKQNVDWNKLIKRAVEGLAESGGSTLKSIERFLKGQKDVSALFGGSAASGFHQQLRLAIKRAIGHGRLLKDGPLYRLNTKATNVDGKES
Sequence,E-score
ACATTGAC,0.0239
GCACGACA,-0.0286
AAAAAAAA,0.00336
GGCGGAGA,0.216
ATCAGGTC,-0.0218
GTTCCAGA,-0.0653
AATGGTAA,-0.0925
CAGAGTGA,-0.198
AATACAGC,-0.141
AATTAGAA,-0.113
AACTAATG,-0.0562
ACACTAAT,-0.0363
AGAGACTG,-0.0934
CGCGTCGC,0.356
CAGGACTC,-0.17
CGAAAGGC,0.106

# For quick reference, copied from above (series 1):
Sequence,fitted relative affinity [z-score]
GACTGTTTCGACTATCGGGACGTGCTA,3.72
TTAGAACTGGGGTATCGAATAGTGCTA,0.715
GACGATTTCTGGTTTCGAGACGTGCTA,4.03
TTAGGTATCGGCATCGGTTAGTGCTAG,4.94
ATCCTTGTCCCTCCGGGAGCGTGCTAG,-0.239
TTAGGTCTCGGACTGGGATAGTGCTAG,1.18
GACGGGCTGGACTATCGGGACGTGCTA,-0.548
